Assay results collected from several papers.
± marks the error that the study gave.
LDHA: L-lactate dehydrogenase A chain (LDHA, Homo sapiens, UniProt P00338)
Lysophospholipase-like protein 1: Lysophospholipase-like protein 1 (Mus musculus, UniProt Q3UFF7)
GRM4: Metabotropic glutamate receptor 4 (GRM4, Homo sapiens, UniProt Q14833)
GLP1R: Glucagon-like peptide 1 receptor (GLP1R, Homo sapiens, UniProt P43220)
Melanocortin receptor 5: Melanocortin receptor 5 (Mus musculus, UniProt P41149)
KCNT1: Potassium channel subfamily T member 1 (KCNT1, Homo sapiens, UniProt Q5JUK3)

The chains behind the UniProt entries cited, without tags or fusion partners. Residues count along the entry.
UniProt Q3UFF7, whole entry: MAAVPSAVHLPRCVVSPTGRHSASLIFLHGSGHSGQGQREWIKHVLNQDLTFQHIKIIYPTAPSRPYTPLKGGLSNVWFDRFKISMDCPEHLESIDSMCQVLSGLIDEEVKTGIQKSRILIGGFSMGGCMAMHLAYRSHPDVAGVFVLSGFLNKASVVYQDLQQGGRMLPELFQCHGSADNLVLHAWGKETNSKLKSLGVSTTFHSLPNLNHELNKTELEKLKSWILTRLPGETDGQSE
UniProt Q14833, 33-912 limits assumed: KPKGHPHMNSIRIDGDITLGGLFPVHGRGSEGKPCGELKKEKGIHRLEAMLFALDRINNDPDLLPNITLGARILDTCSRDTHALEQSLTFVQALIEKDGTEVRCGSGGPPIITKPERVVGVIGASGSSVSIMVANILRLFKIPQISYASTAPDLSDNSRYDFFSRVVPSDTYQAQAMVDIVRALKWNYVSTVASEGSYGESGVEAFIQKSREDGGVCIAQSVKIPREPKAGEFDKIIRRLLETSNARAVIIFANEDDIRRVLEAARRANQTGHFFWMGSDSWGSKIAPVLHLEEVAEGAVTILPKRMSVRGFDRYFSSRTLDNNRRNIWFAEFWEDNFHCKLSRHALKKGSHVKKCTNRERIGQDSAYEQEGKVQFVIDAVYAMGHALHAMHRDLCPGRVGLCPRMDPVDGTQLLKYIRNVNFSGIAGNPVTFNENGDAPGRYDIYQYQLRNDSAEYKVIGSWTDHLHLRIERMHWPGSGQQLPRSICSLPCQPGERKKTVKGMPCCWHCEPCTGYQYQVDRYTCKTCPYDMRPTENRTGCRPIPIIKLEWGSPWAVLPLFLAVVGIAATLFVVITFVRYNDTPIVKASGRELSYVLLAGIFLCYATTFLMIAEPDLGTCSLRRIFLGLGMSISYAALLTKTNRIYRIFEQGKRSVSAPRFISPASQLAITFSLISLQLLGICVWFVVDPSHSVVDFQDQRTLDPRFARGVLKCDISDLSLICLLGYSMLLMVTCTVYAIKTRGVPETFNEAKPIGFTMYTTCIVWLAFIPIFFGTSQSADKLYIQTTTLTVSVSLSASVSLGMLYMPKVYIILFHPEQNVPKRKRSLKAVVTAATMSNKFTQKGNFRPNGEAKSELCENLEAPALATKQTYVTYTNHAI
UniProt P43220, whole entry, looked up: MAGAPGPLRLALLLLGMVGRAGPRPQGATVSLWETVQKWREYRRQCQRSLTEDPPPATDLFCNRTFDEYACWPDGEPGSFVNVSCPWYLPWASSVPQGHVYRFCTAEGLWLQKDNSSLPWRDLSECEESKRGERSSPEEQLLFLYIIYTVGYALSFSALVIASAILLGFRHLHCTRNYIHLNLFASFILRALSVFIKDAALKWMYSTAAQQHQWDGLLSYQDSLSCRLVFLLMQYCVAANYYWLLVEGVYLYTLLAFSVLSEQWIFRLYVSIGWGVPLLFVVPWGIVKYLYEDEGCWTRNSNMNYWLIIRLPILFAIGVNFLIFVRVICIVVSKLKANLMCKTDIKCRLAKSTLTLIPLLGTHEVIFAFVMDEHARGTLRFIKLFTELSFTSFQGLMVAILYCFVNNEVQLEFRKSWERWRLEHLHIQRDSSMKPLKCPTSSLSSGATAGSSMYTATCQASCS
UniProt P45983, whole entry: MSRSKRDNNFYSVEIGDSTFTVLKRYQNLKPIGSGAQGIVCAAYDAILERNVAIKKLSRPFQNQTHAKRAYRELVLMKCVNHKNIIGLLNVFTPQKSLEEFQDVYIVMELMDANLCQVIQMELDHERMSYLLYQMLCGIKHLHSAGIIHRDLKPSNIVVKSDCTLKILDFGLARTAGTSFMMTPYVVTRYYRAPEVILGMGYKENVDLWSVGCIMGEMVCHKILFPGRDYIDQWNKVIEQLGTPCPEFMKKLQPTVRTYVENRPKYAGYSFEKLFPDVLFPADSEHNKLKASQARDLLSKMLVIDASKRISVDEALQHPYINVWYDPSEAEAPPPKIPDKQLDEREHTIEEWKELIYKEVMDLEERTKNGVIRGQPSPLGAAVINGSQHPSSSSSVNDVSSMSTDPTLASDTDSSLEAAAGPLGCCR
UniProt P13569, whole entry: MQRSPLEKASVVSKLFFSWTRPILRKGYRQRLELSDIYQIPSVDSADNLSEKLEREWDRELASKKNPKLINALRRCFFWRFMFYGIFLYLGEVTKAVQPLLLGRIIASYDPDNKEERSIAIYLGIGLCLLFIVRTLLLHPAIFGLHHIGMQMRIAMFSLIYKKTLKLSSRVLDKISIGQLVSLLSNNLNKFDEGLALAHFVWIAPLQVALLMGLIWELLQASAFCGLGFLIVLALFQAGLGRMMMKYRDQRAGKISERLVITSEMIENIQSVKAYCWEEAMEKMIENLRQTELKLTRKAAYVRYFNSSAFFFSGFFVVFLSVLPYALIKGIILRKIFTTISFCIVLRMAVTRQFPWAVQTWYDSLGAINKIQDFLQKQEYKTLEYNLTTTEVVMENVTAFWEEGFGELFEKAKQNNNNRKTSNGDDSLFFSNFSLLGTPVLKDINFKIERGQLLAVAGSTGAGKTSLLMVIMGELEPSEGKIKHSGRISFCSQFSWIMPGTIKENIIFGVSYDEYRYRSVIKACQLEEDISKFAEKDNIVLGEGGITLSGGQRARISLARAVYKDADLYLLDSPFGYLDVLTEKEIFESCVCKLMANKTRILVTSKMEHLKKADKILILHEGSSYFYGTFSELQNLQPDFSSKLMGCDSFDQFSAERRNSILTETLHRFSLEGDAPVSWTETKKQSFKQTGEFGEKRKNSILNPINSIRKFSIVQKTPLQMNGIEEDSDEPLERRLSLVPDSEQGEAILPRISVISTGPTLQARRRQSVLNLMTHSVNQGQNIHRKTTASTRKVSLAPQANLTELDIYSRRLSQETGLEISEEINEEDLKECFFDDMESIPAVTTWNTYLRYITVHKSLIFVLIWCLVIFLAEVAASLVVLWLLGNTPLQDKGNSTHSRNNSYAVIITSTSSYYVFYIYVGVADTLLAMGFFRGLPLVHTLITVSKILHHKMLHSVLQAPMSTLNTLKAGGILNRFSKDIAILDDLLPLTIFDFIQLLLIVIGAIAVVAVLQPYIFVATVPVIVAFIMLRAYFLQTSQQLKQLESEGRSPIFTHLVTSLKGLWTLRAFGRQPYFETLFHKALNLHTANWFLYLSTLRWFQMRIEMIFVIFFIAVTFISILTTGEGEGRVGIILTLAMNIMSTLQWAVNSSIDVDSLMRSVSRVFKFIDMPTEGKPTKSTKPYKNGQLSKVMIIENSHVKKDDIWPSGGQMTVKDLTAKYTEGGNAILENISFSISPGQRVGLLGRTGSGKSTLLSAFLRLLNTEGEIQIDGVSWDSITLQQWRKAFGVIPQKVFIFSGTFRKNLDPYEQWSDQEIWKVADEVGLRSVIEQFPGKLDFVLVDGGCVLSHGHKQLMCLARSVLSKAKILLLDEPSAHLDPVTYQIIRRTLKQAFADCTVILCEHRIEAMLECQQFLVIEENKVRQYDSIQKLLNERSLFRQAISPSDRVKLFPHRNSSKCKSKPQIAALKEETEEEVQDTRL
UniProt P13569, whole entry N1303K: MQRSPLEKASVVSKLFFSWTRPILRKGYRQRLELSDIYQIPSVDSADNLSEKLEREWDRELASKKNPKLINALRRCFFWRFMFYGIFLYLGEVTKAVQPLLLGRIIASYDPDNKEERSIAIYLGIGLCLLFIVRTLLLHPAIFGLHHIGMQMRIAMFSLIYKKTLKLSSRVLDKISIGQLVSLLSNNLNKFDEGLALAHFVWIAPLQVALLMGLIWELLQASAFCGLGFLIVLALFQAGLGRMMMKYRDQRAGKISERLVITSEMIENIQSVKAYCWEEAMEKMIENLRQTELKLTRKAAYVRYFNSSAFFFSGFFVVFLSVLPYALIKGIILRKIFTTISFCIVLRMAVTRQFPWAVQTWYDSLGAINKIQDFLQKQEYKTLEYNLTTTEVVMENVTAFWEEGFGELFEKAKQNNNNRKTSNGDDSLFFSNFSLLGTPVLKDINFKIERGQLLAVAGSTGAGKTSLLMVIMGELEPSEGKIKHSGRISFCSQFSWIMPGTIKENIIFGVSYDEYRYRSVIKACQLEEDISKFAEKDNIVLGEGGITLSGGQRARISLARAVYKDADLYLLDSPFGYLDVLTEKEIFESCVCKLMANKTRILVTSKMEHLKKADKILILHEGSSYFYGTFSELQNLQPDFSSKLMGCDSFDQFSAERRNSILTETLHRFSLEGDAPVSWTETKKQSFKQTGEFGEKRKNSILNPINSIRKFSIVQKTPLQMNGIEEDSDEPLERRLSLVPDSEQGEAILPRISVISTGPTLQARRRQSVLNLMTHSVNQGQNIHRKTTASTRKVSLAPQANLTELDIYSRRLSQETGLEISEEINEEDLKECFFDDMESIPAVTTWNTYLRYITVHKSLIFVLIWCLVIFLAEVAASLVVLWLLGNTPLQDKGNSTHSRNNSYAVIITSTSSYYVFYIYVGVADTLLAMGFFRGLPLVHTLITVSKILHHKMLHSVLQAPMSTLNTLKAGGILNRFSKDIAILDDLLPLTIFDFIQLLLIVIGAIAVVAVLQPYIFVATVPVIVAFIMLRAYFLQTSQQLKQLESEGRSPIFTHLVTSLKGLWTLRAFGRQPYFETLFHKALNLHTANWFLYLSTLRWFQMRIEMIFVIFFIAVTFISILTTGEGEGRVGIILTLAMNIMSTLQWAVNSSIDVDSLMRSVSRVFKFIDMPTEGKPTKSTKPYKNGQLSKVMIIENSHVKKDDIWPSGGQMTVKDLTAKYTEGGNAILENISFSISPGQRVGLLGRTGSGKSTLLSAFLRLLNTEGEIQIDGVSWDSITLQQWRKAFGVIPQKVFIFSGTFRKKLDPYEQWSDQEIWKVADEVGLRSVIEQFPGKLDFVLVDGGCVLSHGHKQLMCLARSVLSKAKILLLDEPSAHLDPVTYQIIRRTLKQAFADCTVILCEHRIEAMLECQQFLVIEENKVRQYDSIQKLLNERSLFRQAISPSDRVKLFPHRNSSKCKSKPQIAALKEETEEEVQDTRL
UniProt Q15399, whole entry, looked up: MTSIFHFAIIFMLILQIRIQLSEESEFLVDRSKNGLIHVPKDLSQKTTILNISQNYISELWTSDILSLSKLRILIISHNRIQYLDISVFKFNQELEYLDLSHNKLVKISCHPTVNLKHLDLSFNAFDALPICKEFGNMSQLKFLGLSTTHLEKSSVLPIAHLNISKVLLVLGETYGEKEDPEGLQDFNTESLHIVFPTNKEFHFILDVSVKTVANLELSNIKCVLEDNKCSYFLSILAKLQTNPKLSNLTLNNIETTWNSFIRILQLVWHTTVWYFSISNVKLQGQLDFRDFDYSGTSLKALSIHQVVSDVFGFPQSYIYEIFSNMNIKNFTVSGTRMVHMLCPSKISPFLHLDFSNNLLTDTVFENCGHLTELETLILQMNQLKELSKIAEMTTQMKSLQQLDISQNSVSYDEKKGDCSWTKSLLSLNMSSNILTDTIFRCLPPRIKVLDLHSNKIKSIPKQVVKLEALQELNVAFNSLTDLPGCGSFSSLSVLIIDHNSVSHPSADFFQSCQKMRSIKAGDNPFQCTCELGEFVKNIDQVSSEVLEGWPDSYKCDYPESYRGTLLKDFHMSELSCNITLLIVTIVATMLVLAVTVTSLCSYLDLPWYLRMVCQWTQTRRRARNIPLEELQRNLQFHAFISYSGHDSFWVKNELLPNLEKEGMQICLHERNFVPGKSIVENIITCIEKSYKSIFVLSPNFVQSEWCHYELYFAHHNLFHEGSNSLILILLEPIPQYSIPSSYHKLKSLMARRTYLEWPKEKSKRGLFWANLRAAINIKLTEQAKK
UniProt Q923Y9, whole entry: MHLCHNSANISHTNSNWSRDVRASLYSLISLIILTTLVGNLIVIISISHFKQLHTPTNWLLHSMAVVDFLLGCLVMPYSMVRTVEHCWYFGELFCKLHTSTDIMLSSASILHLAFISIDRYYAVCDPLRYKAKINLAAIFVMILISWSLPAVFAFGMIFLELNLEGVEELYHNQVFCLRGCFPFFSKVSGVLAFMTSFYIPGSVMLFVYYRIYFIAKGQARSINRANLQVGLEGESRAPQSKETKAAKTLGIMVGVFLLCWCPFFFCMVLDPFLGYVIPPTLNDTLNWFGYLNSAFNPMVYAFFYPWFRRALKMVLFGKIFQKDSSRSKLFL
UniProt Q923Y9, whole entry M268T: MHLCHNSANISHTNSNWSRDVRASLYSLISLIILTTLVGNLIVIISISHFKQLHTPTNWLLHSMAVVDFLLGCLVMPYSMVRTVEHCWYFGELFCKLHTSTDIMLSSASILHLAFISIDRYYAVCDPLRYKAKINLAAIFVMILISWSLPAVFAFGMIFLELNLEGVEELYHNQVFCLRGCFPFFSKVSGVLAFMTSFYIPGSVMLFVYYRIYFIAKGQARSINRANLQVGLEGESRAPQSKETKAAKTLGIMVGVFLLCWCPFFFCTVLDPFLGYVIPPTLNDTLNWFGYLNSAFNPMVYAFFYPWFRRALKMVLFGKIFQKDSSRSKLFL

NS(=O)(=O)c1ccc(Cc2c(C3CCCC3)nn(-c3nc(C(=O)O)cs3)c2-c2ccccc2)cc1
EC50 (LDHA; thermal stabilisation, CETSA; HEK293; 3.5 min, 71 °C): 19000 nM

Cc1cc(NC(=O)c2cccc(NC(=O)C3=CC(C)(C)CC3=O)c2)ccc1Nc1nccc(-c2cccnc2)n1
EC50 (MAPK8 (Homo sapiens, UniProt P45983); JNK1 binding, NanoBRET; HEK293 cells; 2 h, with: tracer K-5): 240 ± 70 nM

Nc1nc(NCCc2ccc(Cl)cc2)nn1S(=O)(=O)c1cccc([N+](=O)[O-])c1
EC50 (Lysophospholipase-like protein 1; enzyme activity, activator, gel-based ABPP, FP-rhodamine; purified protein): 6200 nM

COc1ccc(NC(=O)CN2CCCN(S(=O)(=O)c3cnc(NC(C)=O)s3)CC2)c(OC)c1
EC50 (GRM4; calcium mobilization, positive allosteric modulator; CHO cells with Gqi5; with: glutamate EC20): > 10000 nM

CN(Cc1ccccc1)Cc1cn(CC(C)(C)c2c[nH]c3ccccc23)nn1
EC50 (GLP1R; cAMP accumulation, positive allosteric modulator, HTRF; CHO-K1 expressing GLP1R; purified compound, with: GLP-1(9-36) at EC20): 1320 ± 33 nM

COc1ccc(S(=O)(=O)N2CCCN(CC(=O)Nc3ccc(OC)cc3OC)CC2)cc1
EC50 (GRM4; calcium mobilization, positive allosteric modulator; CHO cells with Gqi5; with: glutamate EC20): > 10000 nM

CCc1ccc(NS(=O)(=O)c2cn(Cc3ccccn3)c3ncccc23)cc1
EC50 (CFTR (Homo sapiens, UniProt P13569, N1303K); iodide influx, co-potentiator, YFP fluorescence; FRT expressing CFTR; with: ivacaftor): 1700 nM

CC(C(=O)Nc1ccc(-c2ccccc2)cn1)n1nnc(-c2ccncc2)c1-c1ccccc1 (centres unmarked)
EC50 (Protein-serine O-palmitoleoyltransferase porcupine (Mus musculus, UniProt Q9JJJ7); Wnt signalling reporter, inhibitor; L-Wnt-STF): 0.2 nM

CCCCN(C(=O)C1CCN(S(=O)(=O)c2ccc3[nH]ncc3c2)CC1)[C@@H]1CCc2ccccc21
EC50 (CHRM5 (Homo sapiens, UniProt P08912); positive allosteric modulator, calcium mobilization; CHO cells expressing human M5; with: acetylcholine EC20): 349 nM

COc1ccc(NC(=O)CN2CCCN(S(=O)(=O)c3ccc(C(F)(F)F)cc3)CC2)c(OC)c1
EC50 (GRM4; calcium mobilization, positive allosteric modulator; CHO cells with Gqi5; with: glutamate EC20): 2500 ± 500 nM

O=C(N[C@H]1CCCC[C@@H]1O)[C@@H]1CN(Cc2ccc(-n3cccn3)cc2)c2ccccc2O1
EC50 (CHRM1 (Homo sapiens, UniProt P11229); calcium mobilization, agonist; high-expression cell line): > 10000 nM

NCCCCNC(=O)[C@H](Cc1ccc(Cl)cc1)NC(=O)N1CCc2ccccc2C1
EC50 (Melanocortin receptor 5; reporter gene, agonist, β-galactosidase reporter; HEK293 stably expressing Melanocortin receptor 5): > 100000 nM

Nc1ccc([N+](=O)[O-])cc1-c1nc2ccccc2[nH]c1=O
EC50 (CFTR (Homo sapiens, UniProt P13569); iodide influx, activator, YFP halide sensor; FRT; approximate, with: forskolin 125 nM): > 25000 nM

Cc1nc(-c2ccc(OCC(C)C)c(C#N)c2)sc1C(=O)N1CCC(F)(F)CC1
EC50 (Grm2/Grm4 (Rattus norvegicus, UniProt P31421+P31423); thallium flux, positive allosteric modulator; HEK293 GIRK; with: glutamate EC20): 2300 nM

CC(=O)c1cccc(S(=O)(=O)n2nc(CCCc3ccc(Cl)cc3)nc2N)c1
EC50 (Lysophospholipase-like protein 1; enzyme activity, activator, gel-based ABPP, FP-rhodamine; purified protein): > 20000 nM

CC1=CC(C)=[N+]2C1=C(CCCC(=O)NCc1cn(CCOc3ccc(C(c4ccc(Cl)cc4)N4CCN(C(=O)OC(C(F)(F)F)C(F)(F)F)CC4)cc3)nn1)c1c(C)cc(C)n1[B-]2(F)F (centres unmarked)
EC50 (MGLL (Homo sapiens, UniProt Q99685); target engagement, gel-based ABPP; U-87 MG; 1 h, 37 °C): ~10 nM

O=C(NC1Cc2ccccc2C1)C(NCC1CC1)c1ccccc1 (centres unmarked)
EC50 (GRM7 (Homo sapiens, UniProt Q14831); cellular impedance, agonist, CellKey impedance; CHO expressing mGluR7; single addition): 90 nM

C#CCCCN1C(=O)C2(CN2[S+]([O-])C(C)(C)C)c2ccccc21 (centres unmarked)
EC50 (MYC (Homo sapiens, UniProt P01106); protein degradation, degrader, HiBiT; HEK293-LgBiT; 24 h): > 50000 nM

Cc1c(=O)n(C)c(Nc2ccc(I)cc2F)c2c(=O)n(C3CC3)c(=O)n(-c3cccc(NC(=O)CCOCCOCCNC(=O)CCC4=[N+]5C(=Cc6ccc(-c7ccc[nH]7)n6[B-]5(F)F)C=C4)c3)c12
EC50 (Dual specificity mitogen-activated protein kinase kinase 1, with KSR1 (MAP2K1, Homo sapiens, UniProt Q02750); binding, NanoBRET; HEK-293T; MEK1-NanoLuc with KSR1): 112 ± 1 nM

Nc1nc(SCc2ccc(Cl)c(Cl)c2)nn1S(=O)(=O)c1ccc2c(c1)CCO2
EC50 (LYPLAL1 (Homo sapiens, UniProt Q5VWZ2); enzyme activity, activator, gel-based ABPP, FP-rhodamine; purified protein): 450 nM

CCOC(=O)C1=C(C)Nc2nc3c(c(N)c2C1c1ccccc1Cl)CC(C)(C)CC3 (centres unmarked)
EC50 (PPP2CA (Homo sapiens, UniProt P67775); phosphatase activity, activator; HEK293 expressing tau): 414 nM

CNc1nc(C#Cc2ccc(Cl)s2)nc2c1ncn2[C@H]1[C@H](O)[C@H](O)[C@]2(C(=O)OC(C)C)C[C@H]12
EC50 (SLC6A3 (Homo sapiens, UniProt Q01959)): 470 nM

O=C(Nc1cccc(F)c1)C12CC1/C(=N\O)c1ccccc1O2 (centres unmarked)
EC50 (GRM4; calcium mobilization, positive allosteric modulator; CHO hmGluR4/Gqi5; with: glutamate EC20): > 5000 nM

NCCCCNC(=O)[C@H](Cc1ccc2ccccc2c1)NC(=O)N1CCc2ccccc2C1
EC50 (Mc1r (Mus musculus, UniProt Q01727); reporter gene, agonist, β-galactosidase reporter; HEK293 stably expressing Mc1r): > 100000 nM

COc1ccccc1-c1cc(C(F)(F)F)nc(S(C)(=O)=O)n1
EC50 (AVPR2 (Homo sapiens, UniProt P30518); cAMP accumulation, positive allosteric modulator; CHO-K1 overexpressing target; with: vasopressin at EC20): 18000 ± 13000 nM

Cc1[nH]c2cc(Cl)cc(Cl)c2c1CCn1cc(CCCN)nn1
EC50 (GLP1R; cAMP accumulation, positive allosteric modulator, HTRF; CHO-K1 expressing GLP1R; crude reaction product, with: GLP-1(9-36) at EC20): 560 nM

Nc1nc(SCc2ccc(Cl)cc2)nn1S(=O)(=O)c1cccc2nonc12
EC50 (Lysophospholipase-like protein 1; enzyme activity, activator, gel-based ABPP, FP-rhodamine; purified protein): 440 nM

O=S(=O)(c1cccc(C(F)(F)F)c1)N1CCC(Cn2cnc3ccccc32)CC1
EC50 (KCNT1; thallium flux, activator; HEK293 expressing KCNT1): 4300 nM

NCCCCNC(=O)[C@H](Cc1ccccc1)NC(=O)N1CCc2ccccc2C1
EC50 (Melanocortin receptor 5; reporter gene, agonist, β-galactosidase reporter; HEK293 stably expressing Melanocortin receptor 5): 22000 ± 4100 nM

Cc1cccc2ncn(CC3CCN(S(=O)(=O)c4cccc(C(F)(F)F)c4)CC3)c12
EC50 (KCNT1; thallium flux, activator; HEK293 expressing KCNT1): 1300 nM

O=C(O)CCNC(=O)c1ccc(NCc2cn(CC3(c4ccc(Cl)cc4)CC3)nn2)cc1
EC50 (GLP1R; cAMP accumulation, positive allosteric modulator, HTRF; CHO-K1 expressing GLP1R; with: GLP-1 at EC20): 5780 nM

NCC(c1ccc(O)cc1)c1ccc(Oc2ccccc2)cc1 (centres unmarked)
EC50 (Taar1 (Mus musculus, UniProt Q923Y8, T268M/Y287N); cAMP production, agonist; double mutant): 138 ± 24 nM

COc1ccc(NC(=O)CN2CCCN(S(=O)(=O)c3ccccc3Cl)CC2)c(OC)c1
EC50 (GRM4; calcium mobilization, positive allosteric modulator; CHO cells with Gqi5; with: glutamate EC20): > 10000 nM

CCCn1c(NCc2ccccc2O)nc2ccccc21
EC50 (ALDH1A3 (Homo sapiens, UniProt P47895); enzyme activity, inhibitor, NADH absorbance 340 nm; pH 7.5, 25 °C, 200 µM NAD+, with: 100 µM propionaldehyde): 700 ± 45 nM

NCC(c1ccccc1)c1ccc(O)cc1 (centres unmarked)
EC50 (Taar1 (Mus musculus, UniProt Q923Y8); cAMP production, agonist; HEK293): > 10000 nM

Cc1[nH]c2cc(Cl)cc(Cl)c2c1CCn1cc(CN2CCS(=O)(=O)CC2)nn1
EC50 (GLP1R; cAMP accumulation, positive allosteric modulator, HTRF; CHO-K1 expressing GLP1R; crude reaction product, with: GLP-1(9-36) at EC20): 498 nM

CNc1ccc([N+](=O)[O-])cc1-n1cnc(-c2ccc(C(=O)OC)cc2)c1
EC50 (Toll-like receptor 1/2 (Homo sapiens, UniProt O60603+Q15399); reporter gene, agonist, SEAP reporter; HEK-Blue hTLR2; 24 h): 990 ± 190 nM

Nc1nc(SCc2ccc(Cl)cc2)nn1S(=O)(=O)c1nc2ccccc2s1
EC50 (Lysophospholipase-like protein 1; enzyme activity, activator, gel-based ABPP, FP-rhodamine; purified protein): > 20000 nM

O=C(Nc1ccc([N+](=O)[O-])cc1)N[C@@H](Cc1c[nH]c2ccccc12)C(=O)NCC1(c2ccccn2)CCCCC1
EC50 (FPR1 (Homo sapiens, UniProt P21462); Ca2+ mobilization, agonist; HL-60 transfected with FPR1): 12900 ± 3400 nM

NCC(c1ccccc1)c1cccc(Oc2ccccc2)c1 (centres unmarked)
EC50 (Trace amine-associated receptor 1 (Rattus norvegicus, UniProt Q923Y9, M268T); cAMP, agonist; rat receptor mutant): 55 ± 20 nM

NS(=O)(=O)c1ccc(Cc2c(-c3ccc(F)c(C4CCCCC4)c3)nn(-c3nc(C(=O)O)cs3)c2CC2CC2)cc1F
EC50 (LDHA; thermal stabilisation, CETSA; HEK293; 3.5 min, 71 °C): 180 nM

CC(C)(Cn1cc(-c2ccc(N)nc2)nn1)c1c[nH]c2ccccc12
EC50 (GLP1R; cAMP accumulation, positive allosteric modulator, HTRF; CHO-K1 expressing GLP1R; purified compound, with: GLP-1(9-36) at EC20): 496 ± 149 nM

CCCCC(C(=O)Nc1ccc(Br)cc1)n1nc(C)cc(Cc2cccc(OC)c2)c1=O (racemic)
EC50 (FPR2 (Homo sapiens, UniProt P25090); calcium mobilization, agonist; HL-60 transfected with FPR2): 100 nM

CCC(C)(N)c1cn(CC(C)(C)c2c[nH]c3ccccc23)nn1 (centres unmarked)
EC50 (GLP1R; cAMP accumulation, positive allosteric modulator, HTRF; CHO-K1 expressing GLP1R; purified compound, with: GLP-1(9-36) at EC20): 2010 ± 720 nM

NCC(c1ccc(O)cc1)c1ccc(O)cc1
EC50 (Trace amine-associated receptor 1 (Rattus norvegicus, UniProt Q923Y9); cAMP production, agonist; HEK293): 115 ± 12 nM

CC(C)(Cn1cc(CNC(=O)Cc2ccccc2)nn1)c1c[nH]c2ccccc12
EC50 (GLP1R; cAMP accumulation, positive allosteric modulator, HTRF; CHO-K1 expressing GLP1R; purified compound, with: GLP-1(9-36) at EC20): 1020 ± 122 nM

COc1ccc(NC(=O)CN2CCCN(S(=O)(=O)Cc3ccccc3)CC2)c(OC)c1
EC50 (GRM4; calcium mobilization, positive allosteric modulator; CHO cells with Gqi5; with: glutamate EC20): > 10000 nM

For quick reference, copied from above:
COc1ccc(NC(=O)CN2CCCN(S(=O)(=O)c3cnc(NC(C)=O)s3)CC2)c(OC)c1
EC50 (GRM4; calcium mobilization, positive allosteric modulator; CHO cells with Gqi5; with: glutamate EC20): > 10000 nM

COc1ccccc1-c1cc(C(F)(F)F)nc(S(C)(=O)=O)n1
EC50 (AVPR2 (Homo sapiens, UniProt P30518); cAMP accumulation, positive allosteric modulator; CHO-K1 overexpressing target; with: vasopressin at EC20): 18000 ± 13000 nM

COc1ccc(S(=O)(=O)N2CCCN(CC(=O)Nc3ccc(OC)cc3OC)CC2)cc1
EC50 (GRM4; calcium mobilization, positive allosteric modulator; CHO cells with Gqi5; with: glutamate EC20): > 10000 nM

CC(C)(Cn1cc(CNC(=O)Cc2ccccc2)nn1)c1c[nH]c2ccccc12
EC50 (GLP1R; cAMP accumulation, positive allosteric modulator, HTRF; CHO-K1 expressing GLP1R; purified compound, with: GLP-1(9-36) at EC20): 1020 ± 122 nM

Nc1nc(NCCc2ccc(Cl)cc2)nn1S(=O)(=O)c1cccc([N+](=O)[O-])c1
EC50 (Lysophospholipase-like protein 1; enzyme activity, activator, gel-based ABPP, FP-rhodamine; purified protein): 6200 nM

Cc1cccc2ncn(CC3CCN(S(=O)(=O)c4cccc(C(F)(F)F)c4)CC3)c12
EC50 (KCNT1; thallium flux, activator; HEK293 expressing KCNT1): 1300 nM

Cc1c(=O)n(C)c(Nc2ccc(I)cc2F)c2c(=O)n(C3CC3)c(=O)n(-c3cccc(NC(=O)CCOCCOCCNC(=O)CCC4=[N+]5C(=Cc6ccc(-c7ccc[nH]7)n6[B-]5(F)F)C=C4)c3)c12
EC50 (Dual specificity mitogen-activated protein kinase kinase 1, with KSR1 (MAP2K1, Homo sapiens, UniProt Q02750); binding, NanoBRET; HEK-293T; MEK1-NanoLuc with KSR1): 112 ± 1 nM
